Measured values from different studies.
“And” joins repeats or separate records; there may be more than shown. ± gives the spread as reported.

Structure (SMILES)	test	system	conditions	how to read	quantity	result
COc1cccc(Oc2ccccc2NC(=O)CNC(=O)c2cccc3ccccc23)c1		esterase-deficient SCID mice, male	oral, 40 mg/kg/day, 14 days, toxicity study		serum creatinine	0.1 mg/dL and 0.2 mg/dL
O=C(Nc1ccccc1)C1CCN(C(=O)Oc2cccnc2)CC1	Bond-Lader VAS	healthy women	oral, 100 mg	reference: pre-dose baseline, direction not given	change in withdrawn–gregarious score	6.8
C[C@@H](NC(=O)N1C(=O)[C@H](Cc2ccnc(N)c2)[C@H]1C(=O)O)C1CCCCC1		healthy adult Chinese volunteers	continuous intravenous infusion, 1.0 mg/kg/h, 5-day infusion, CTCAE 5.0 grading		incidence of albuminuria	12.5%
CCc1ccc(CC/C=C/c2ccc3c(c2)C(=O)CC3)cc1		Sprague-Dawley rat, female	oral, 450 mg/kg/day, 14 days		Urea	5.47 mM
Cn1c(-c2ccc(C(N)=O)cc2F)nnc1C(C)(C)Oc1c(F)cc(Cl)cc1F		human	oral, dose not given, single ascending dose all doses		subjects with device site TEAE	13.9%
CO[C@H]1C[C@@H]2CC[C@@H](C)[C@@](O)(O2)C(=O)C(=O)N2CCCC[C@H]2C(=O)O[C@H]([C@H](C)C[C@@H]2CC[C@@H](OC(=O)NCCOCCOCCOCCOCCOCCOCCOCCOCCC(=O)N3CCc4cc(Cn5nc(-c6ccc7oc(N)nc7c6)c6c(N)ncnc65)ccc4C3)[C@H](OC)C2)C[C@@H](O)[C@H](C)/C=C(\C)[C@@H](O)[C@@H](OC)C(=O)[C@H](C)C[C@H](C)/C=C/C=C/C=C/1C		patients with advanced solid tumours	intravenous, 8 mg weekly, grade 3 or higher		abdominal pain incidence	6.3%
COc1cc2c(Oc3ccc4[nH]c(C)cc4c3F)ccnc2cc1OCC1(N)CC1		paediatric recurrent refractory sarcoma	12 mg		grade 1 or 2 Rash	18.2%
Brc1ccc(Oc2cc(Br)c(Br)cc2Br)c(Br)c1		whole cow milk	2000 nM nominal		dose fraction in milk fat	84.7%
[Cl][212Pb][Cl]		athymic mice, C4-2 xenograft, brain	intravenous, 2 h, 212Pb-labelled		tissue uptake	0.2 ± 0.03 %ID/g
O=C(O)CCCOc1ccc(F)cc1-c1cc(-c2ccccc2C(F)(F)F)n(-c2ccccc2)n1		female Crl:CD(SD) rats	intravenous, 25 µg/kg, 14 d		prothrombin time	9 s and 9.8 s and 9.9 s and 9.7 s and 9.1 s
N[C@@H]1c2ccccc2OC12CCN(c1cnc3c(N4CCCc5ncccc54)n[nH]c3n1)CC2		patients advanced metastatic solid tumours	oral, 60 mg once daily, RP2D expansion phase		incidence of any serious TEAE	30%
CCN1CCN(Cc2ccc(Nc3ncc(F)c(-c4cc(F)c5nc6n(c5c4)[C@H](C)CCC6)n3)nc2)CC1		advanced solid tumour patients	dose not given, Phase Ia monotherapy		neutropenia incidence, grade ≥3	8.3%
C[C@]1(CO)Cc2ncn(-c3ccc(C#N)c(Cl)c3)c2C(=O)O1		healthy Japanese subjects	dose not given, single dose, all doses		subjects with TEAE	16.7%

Excerpt of the above:
Structure (SMILES)	test	system	conditions	how to read	quantity	result
CCc1ccc(CC/C=C/c2ccc3c(c2)C(=O)CC3)cc1		Sprague-Dawley rat, female	oral, 450 mg/kg/day, 14 days		Urea	5.47 mM
Cn1c(-c2ccc(C(N)=O)cc2F)nnc1C(C)(C)Oc1c(F)cc(Cl)cc1F		human	oral, dose not given, single ascending dose all doses		subjects with device site TEAE	13.9%
